Measured values from different studies.
Protocols differ between the studies behind these lines. ± gives the spread as reported.
B1: efpA 1-530 F381A (Mycobacterium tuberculosis, UniProt P9WJY5); chain MTALNDTERAVRNWTAGRPHRPAPMRPPRSEETASERPSRYYPTWLPSRSFIAAVIAIGGMQLLATMDSTVAIVALPKIQNELSLSDAGRSWVITAYVLTFGGLMLLGGRLGDTIGRKRTFIVGVALFTISSVLCAVAWDEATLVIARLSQGVGSAIASPTGLALVATTFPKGPARNAATAVFAAMTAIGSVMGLVVGGALTEVSWRWAFLVNVPIGLVMIYLARTALRETNKERMKLDATGAILATLACTAAVFAFSIGPEKGWMSGITIGSGLVALAAAVAFVIVERTAENPVVPFHLFRDRNRLVTFSAILLAGGVMFSLTVCIGLYVQDILGYSALRAGVGFIPFVIAMGIGLGVSSQLVSRFSPRVLTIGGGYLLAGAMLYGSFFMHRGVPYFPNLVMPIVVGGIGIGMAVVPLTLSAIAGVGFDQIGPVSAIALMLQSLGGPLVLAVIQAVITSRTLYLGGTTGPVKFMNDVQLAALDHAYTYGLLWVAGAAIIVGGMALFIGYTPQQVAHAQEVKEAIDAGEL
B2: rv1218c (Mycobacterium tuberculosis, UniProt O86311); chain MSADNHQVPIEIRGLTKHFGSVRALDGLDLTVREGEVHGFLGPNGAGKSTTLRILLGLVKADGGSVRLLGGDPWTDAVDLHRHIAYVPGDVTLWPSLTGGETIDLLARMRGGIDNARRAELIERFGLDPTKKARTYSKGNRQKVSLISALSSHATLLLLDEPSSGLDPLMENVFQQCIGEARQRGVTVLLSSHILAETEALCEKVTIIRAGKTVESGSLDALRHLSRTSIKAEMIGDPGDLSQIKGVEDISIEGTTVRAQVDSESLRELIQVLGHAGVRSLVSQPPTLEELFLRHYSLGPEVAAEQQVATP
B3: efpA 1-530 F389A (Mycobacterium tuberculosis, UniProt P9WJY5); chain MTALNDTERAVRNWTAGRPHRPAPMRPPRSEETASERPSRYYPTWLPSRSFIAAVIAIGGMQLLATMDSTVAIVALPKIQNELSLSDAGRSWVITAYVLTFGGLMLLGGRLGDTIGRKRTFIVGVALFTISSVLCAVAWDEATLVIARLSQGVGSAIASPTGLALVATTFPKGPARNAATAVFAAMTAIGSVMGLVVGGALTEVSWRWAFLVNVPIGLVMIYLARTALRETNKERMKLDATGAILATLACTAAVFAFSIGPEKGWMSGITIGSGLVALAAAVAFVIVERTAENPVVPFHLFRDRNRLVTFSAILLAGGVMFSLTVCIGLYVQDILGYSALRAGVGFIPFVIAMGIGLGVSSQLVSRFSPRVLTIGGGYLLFGAMLYGSAFMHRGVPYFPNLVMPIVVGGIGIGMAVVPLTLSAIAGVGFDQIGPVSAIALMLQSLGGPLVLAVIQAVITSRTLYLGGTTGPVKFMNDVQLAALDHAYTYGLLWVAGAAIIVGGMALFIGYTPQQVAHAQEVKEAIDAGEL

Molecule | tested on | assay | test system | conditions | measurement | value
main protease C145A (SARS-CoV-2) | itself | native MS | – | 5 µM, apo | dimer fraction | 100%
MLEPFQILSISSFILSALHFMAWTIGALNQIKR (BM2 transmembrane domain H27A (Influenza B virus)) | – | solid-state NMR, item: His19 | peptide, VM+ membrane pellets | membrane-bound tetramer, no drug, fourth protonation | pKa | 7.8
Mrc1 (Mus musculus, UniProt Q61830) | S full length trimer R683A/R685A (SARS-CoV-2) | ELISA | – | – | Kd | 0.000317 µM
nsp5 mature L141R (SARS-CoV-2) | itself | native MS | – | – | subunits per oligomer | 2
B1 (efpA 1-530 F381A) | itself | SEC | – | – | binding | binds
3CLpro G11S (SARS-CoV-2) | itself | steady-state kinetics | – | – | Kd | 10 µM
main protease S10C (SARS-CoV-2) | itself | native MS | – | 5 µM, apo | dimer fraction | 12 ± 1%
nsp9 mature N96D (SARS-CoV-2) | itself | SEC | – | – | subunits per oligomer | 2
pdtaS H67A (Mycobacterium tuberculosis) | itself | MST | – | – | Kd | 8.78 µM
B2 (rv1218c) | Rv1217c (Mycobacterium tuberculosis, UniProt O05318) | cryo-EM | – | – | binding | binds
B3 (efpA 1-530 F389A) | itself | SEC | – | – | binding | binds
main protease S147N (SARS-CoV-2) | itself | native MS | – | 5 µM, apo | dimer fraction | 8 ± 1%
HA/foldon ectodomain with foldon (influenza B virus) | itself | SEC | – | – | subunits per oligomer | > 9 HA monomers
HN ectodomain, N-glycosylated, disulfide-linked dimer (parainfluenza virus 5) | itself | negative-stain EM | – | – | subunits per oligomer | 4
HA ectodomain HA2 E47K (influenza A H1N1 A/California/04/2009) | itself | cryo-EM | – | – | subunits per oligomer | 3
pdtaS C57A (Mycobacterium tuberculosis) | itself | MST | – | – | Kd | 0.608 µM
